Published values pooled from the literature.
Every numbered part comes from another study and shows a few of its results, in no order. Substitutions count along the parent as printed.

Block 1 — technique: RNA Bind-n-Seq; form: RNA; medium: in vitro; concentration: 200 nM; setting: whole 134-nt RNA, ends assumed; added: 150 mM LiCl; baseline: input library; reading: higher = stronger binding; each molecule: 7-deaza-guanosine replaces G
Target: Ras GTPase-activating protein-binding protein 1, full length (G3BP1, Homo sapiens, UniProt Q13283)
UniProt Q13283, sequence (whole entry, looked up): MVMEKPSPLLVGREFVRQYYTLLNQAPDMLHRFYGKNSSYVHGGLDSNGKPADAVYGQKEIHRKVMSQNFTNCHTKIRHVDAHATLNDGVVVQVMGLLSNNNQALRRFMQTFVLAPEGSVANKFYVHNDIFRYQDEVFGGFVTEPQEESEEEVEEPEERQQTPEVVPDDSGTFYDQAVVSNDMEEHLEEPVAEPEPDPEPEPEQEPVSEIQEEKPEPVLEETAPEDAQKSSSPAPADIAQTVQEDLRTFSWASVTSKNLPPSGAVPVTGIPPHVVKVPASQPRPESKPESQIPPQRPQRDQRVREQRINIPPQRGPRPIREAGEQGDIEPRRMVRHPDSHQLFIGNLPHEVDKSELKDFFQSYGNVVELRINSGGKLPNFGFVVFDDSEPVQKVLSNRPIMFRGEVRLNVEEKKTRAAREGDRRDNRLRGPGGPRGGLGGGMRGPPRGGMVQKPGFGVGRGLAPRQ
Shared flanks, not repeated: GGGAGUUCUACAGUCCGACGAUC … UGGAAUUCUCGGGUGUCAAGG
Sequence | log2 enrichment
UCCUGUGCUACACAUCGUAUGUACCGAAUCGGGGUUUUUGGGUUUUUGGGGUUUUUGGGAAAGUAUUAUGUUACGCCGUUCGGAUCUGCA | 0.921
GUCCUGUGCUACACAUCGUAUGUACCGAAUCGGGGAAAGGGGAGGGGUUUUUUUGGGGAAAGUAUUAUGUUACGCCGUUCGGAUCUGCAC | 0.548
CUGUGCUACACAUCGUAUGUACCGAAUCGGGGAAAAAAAGGAAAAAAAGGGAAAAAAAGGGAAAGUAUUAUGUUACGCCGUUCGGAUCUG | -0.0932
CCUCAAGUCCUGUGCUACACAUCGUAUGUACCGAAUCGGUGGAAAAAGGAGGAAAGUAUUAUGUUACGCCGUUCGGAUCUGCACUUCCAG | 0.209
UGGGAGGUGGAUUUUGUUUAUUUUUUUAGCUCAUUUCCAGGGGUGGGAAUUUUUUUCUAAUAUGUGUCAUGAAUAAAGUUGUUUUUGAAA | -0.434
UCCUCAAGUCCUGUGCUACACAUCGUAUGUACCGAAUCGGAGGUUUGGAGGAAAGUAUUAUGUUACGCCGUUCGGAUCUGCACUUCCAGC | -0.848
UAACUUUAGAGGAGGAUCUGAUGGAUAUGGCAGUGGACGUGGAUUUGGGGAUGGCUAUAAAGGGUAUGGAGGAGGACCUGGAGGUGGCAA | -0.381
CUGUGCUACACAUCGUAUGUACCGAAUCGGCCCCCCCGGGCCCCCCCGGGGCCCCCCCGGGGAAAGUAUUAUGUUACGCCGUUCGGAUCU | -0.338
UCAAGUCCUGUGCUACACAUCGUAUGUACCGAAUCGGUUUUUGGUUUGGUUUGGAAAGUAUUAUGUUACGCCGUUCGGAUCUGCACUUCC | -0.566
CACAGACAACACGCACCCACACAGACACAGAGGGAAGGGGUUGGGAUGGGGACAGGGUGCACAGCAGGGCGGGGUAGGACCCCUGCCCCU | -0.971
CUCAAGUCCUGUGCUACACAUCGUAUGUACCGAAUCGGUUUUUGGAGGUUUGGAAAGUAUUAUGUUACGCCGUUCGGAUCUGCACUUCCA | 0.0304

Block 2 — technique: universal PBM; form: double-stranded DNA, one strand shown; medium: in vitro; concentration: not given; reading: higher = stronger binding
Target: Sal-like protein 4, full length isoform B (SALL4, Homo sapiens, UniProt Q9UJQ4-2, residues 1-616)
Setting: 8-mer, flanks averaged, mean of replicates
Sequence | E-score
AAGATGAA | 0.105
CCCTTGCC | -0.248
AGGGTATC | -0.0853
CCGGTCGA | -0.395
AACCCTCC | -0.163
AACACGCG | -0.108
GCTACAAA | 0.12
GGAGAGAA | -0.165
AGAGTGTC | 0.0998
GGCCCGTA | -0.251
ATTGTGAC | 0.031
AGTTTGCC | -0.0957
AAGACTCC | -0.155
CACTTCAA | 0.138
CAGAGAAC | -0.0575
AGTGCCAG | -0.295
ATTATTCA | 0.357
CGCCGCAA | -0.163
CATAGTTA | 0.287
ACGGAGGA | -0.137
CATCCATA | 0.187
ATGGTTAC | 0.159
CTATGGCC | -0.164
AGACAAAT | 0.253

Block 3 — technique: aptamer microarray, sandwich; form: DNA with 2'F-ANA; medium: in vitro; concentration: 200 nM; added: Cy3 exosite-II aptamer, 400 nM; reading: higher = stronger binding; sequence: GGTTGGTGTGGTTGG
Target: Prothrombin, mature alpha-thrombin (F2, Homo sapiens, UniProt P00734)
Setting: whole 15-mer aptamer, many near background
Modification | mean fluorescence intensity [a.u.]
2'F-ANA at 2 5 6 7 9 10 11 14 | 60.4
2'F-ANA at 2 4 5 6 7 8 10 11 12 14 15 | 47.8
2'F-ANA at 1 3 4 5 7 13 14 15 | 45.9
2'F-ANA at 3 4 5 8 11 12 14 15 | 56.7
2'F-ANA at 3 5 6 8 9 11 12 13 15 | 140
2'F-ANA at 1 2 3 8 10 12 13 14 15 | 53.3
2'F-ANA at 4 7 8 10 11 12 13 | 87.8
2'F-ANA at 5 6 7 8 10 12 15 | 50.3
2'F-ANA at 1 2 6 12 13 | 228
2'F-ANA at 1 2 5 7 9 11 12 14 | 46.7
2'F-ANA at 1 3 4 6 8 11 13 | 149
2'F-ANA at 3 4 8 12 13 | 766
2'F-ANA at 1 2 3 6 8 9 13 14 | 78.2
2'F-ANA at 2 3 4 6 7 8 9 11 13 | 328
2'F-ANA at 1 2 4 5 6 8 9 10 11 13 14 | 57.1
2'F-ANA at 2 4 6 7 8 10 11 13 14 | 64.2
2'F-ANA at 1 6 7 8 10 11 15 | 53.5
2'F-ANA at 1 2 4 7 8 10 12 13 15 | 59.7
2'F-ANA at 3 8 9 10 12 13 | 566
2'F-ANA at 3 5 6 8 10 12 13 14 | 52.7
2'F-ANA at 1 2 3 5 14 15 | 48.1
2'F-ANA at 5 7 11 14 15 | 46.4
2'F-ANA at 2 3 6 7 13 15 | 549
2'F-ANA at 2 3 4 6 10 15 | 215
2'F-ANA at 2 3 4 8 9 10 11 12 14 15 | 160

Block 4 — technique: DHFR PCA, deep sequencing; medium: yeast; added: (+)-ABA 17 µM; baseline: wild-type fitted maximum; reading: higher = stronger binding
Target: ABI1, truncated, D143A, DHFR fusion (Arabidopsis thaliana)
Setting: methotrexate growth selection, single substitutions
Starting sequence: PYL1, truncated, DHFR fusion (Arabidopsis thaliana); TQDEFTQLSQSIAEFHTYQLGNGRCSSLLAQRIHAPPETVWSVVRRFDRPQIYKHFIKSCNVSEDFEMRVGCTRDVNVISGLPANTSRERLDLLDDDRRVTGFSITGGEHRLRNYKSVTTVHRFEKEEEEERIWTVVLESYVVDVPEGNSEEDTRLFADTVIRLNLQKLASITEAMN
Change | relative binding score
E67Y | 66.8%
P146W | 7.32%
A30Q | 80%
Q10M | 69.5%
L29Y | 23.7%
T1R | 76.8%
E131R | 85.1%
P83H | 13%
E125I | 82.8%
D97T | 100%
N85L | 82.6%
V70K | 53.4%
L164S | 80.1%
V145C | 67.7%
S42T | 71.7%
A84G | 76.3%

Block 5 — technique: protein binding microarray; form: double-stranded DNA, one strand shown; medium: in vitro; concentration: not given; baseline: not given; reading: higher = stronger binding
Target: Histone acetyltransferase KAT6A, winged helix 2, GST fusion (KAT6A, Homo sapiens, UniProt Q92794, residues 85-181)
Setting: 8-mer, flanks averaged, mean of 2 arrays, mostly near background
Residues (chain): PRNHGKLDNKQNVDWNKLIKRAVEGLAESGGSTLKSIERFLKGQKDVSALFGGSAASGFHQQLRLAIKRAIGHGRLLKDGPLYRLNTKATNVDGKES
Sequence | E-score
GTTGGTTA | -0.02
CGCGTGCA | -0.0636
GCCGCCGC | 0.212
CACAAGAG | 0.0241
ATACTGCA | 0.0736
GGGATATA | 0.0478
AACCTACG | -0.00086
GGTTGAAC | 0.0939
GTAAGGAC | -0.0356
AGGCCGGC | 0.0498
CCTCACGC | 0.135
AGTATTGG | -0.0613
GAGTAATC | 0.0839
AACGACTA | -0.078
ATATCGAT | -0.00436
ACGGAGCC | -0.00236
CCTTTGCG | 0.112
CGTCTCAA | -0.0681
ATCGTAAA | -0.0254
